Measurements pooled from the literature.
Numbered parts are unrelated; each lists some results of a single study. Changes are numbered by the printed parent chain.

Set 1 — target: tungstate, free oxyanion; technique: microfluidic competitive inhibition; medium: in vitro, cell-free expressed; concentration: not given; reading: lower = stronger binding
Notes: derived from inhibition constants, unchanged parent 2230 nM
Parent: PafA, mature enzyme, eGFP fusion (Elizabethkingia meningoseptica, UniProt Q9KJX5); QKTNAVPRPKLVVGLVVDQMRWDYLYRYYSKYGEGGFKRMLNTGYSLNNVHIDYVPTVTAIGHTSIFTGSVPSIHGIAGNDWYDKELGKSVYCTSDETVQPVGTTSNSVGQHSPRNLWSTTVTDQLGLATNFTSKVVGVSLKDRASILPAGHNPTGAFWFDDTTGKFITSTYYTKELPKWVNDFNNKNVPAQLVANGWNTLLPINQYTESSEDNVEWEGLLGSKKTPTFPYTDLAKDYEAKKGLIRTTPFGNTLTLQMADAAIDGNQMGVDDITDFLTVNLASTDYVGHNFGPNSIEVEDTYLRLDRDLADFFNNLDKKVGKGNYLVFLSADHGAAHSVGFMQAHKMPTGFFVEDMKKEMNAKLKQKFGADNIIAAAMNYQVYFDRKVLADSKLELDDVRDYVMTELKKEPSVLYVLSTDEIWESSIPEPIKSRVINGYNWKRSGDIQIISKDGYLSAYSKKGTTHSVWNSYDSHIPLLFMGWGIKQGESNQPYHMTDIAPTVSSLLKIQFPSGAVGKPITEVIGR
| Substitution | oxyanion analog dissociation constant |
| --- | --- |
| L479V | 2.31 µM |
| D285G | < 92.4 nM |
| P501G | 2.02 µM |
| H333V | 3.61 µM |
| T255V | 2.75 µM |

Set 2 — target: CCNA2, cyclin fold, Cln2 fusion (human); technique: yeast growth competition, sequencing; medium: yeast; notes: strong parent motif; relative to: not given; reading: higher = stronger binding
Parent: viral docking peptide; YKVKRRLVFGADD; partner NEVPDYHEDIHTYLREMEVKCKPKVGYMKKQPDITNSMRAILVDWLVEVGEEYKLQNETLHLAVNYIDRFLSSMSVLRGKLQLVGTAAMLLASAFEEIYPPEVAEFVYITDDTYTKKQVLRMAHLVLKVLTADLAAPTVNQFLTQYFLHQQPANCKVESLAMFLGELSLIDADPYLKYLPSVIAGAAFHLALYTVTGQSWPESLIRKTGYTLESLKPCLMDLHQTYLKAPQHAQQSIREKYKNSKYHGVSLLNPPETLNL
| Substitution | normalised enrichment score |
| --- | --- |
| F9N | 0.208 |
| D12H | 6.29 |
| R6P | 2.47 |
| L7D | 0.533 |
| F9L | 4.67 |
| R6N | 3.03 |
| V8I | 6.27 |
| A11G | 6.39 |
| K2C | 5.98 |
| V3P | 5.84 |
| D12F | 6.14 |
| D12S | 6.32 |
| L7N | 0.679 |
| V8H | 6.27 |
| K4Q | 6 |
| A11N | 6.23 |

Set 3 — target: CREM, bZIP domain (human); technique: DHFR protein complementation; medium: yeast; relative to: wild-type JUN-FOS pair; reading: higher = stronger binding
Notes: single substitutions, most at no-binding floor
Parent: JUN, bZIP domain (human); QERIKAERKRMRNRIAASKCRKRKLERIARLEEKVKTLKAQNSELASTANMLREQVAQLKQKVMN; partner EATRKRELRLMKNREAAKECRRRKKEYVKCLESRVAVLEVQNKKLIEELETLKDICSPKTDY
| Substitution | binding fitness [natural log] |
| --- | --- |
| L45A | -1.58 |
| L52T | -1.5 |
| L45T | -1.53 |
| L31V | -1.6 |
| E32Q | -1.43 |
| Q41K | -1.46 |
| Q41I | -1.4 |
| T37R | -1.35 |

Single results of other studies — technique: cross-linking MS; medium: cell fractions
| Molecule | partner | with | cross-linked residues |
| --- | --- | --- | --- |
| SF3B1 (Homo sapiens, UniProt O75533) | GIMAP8 (Homo sapiens, UniProt Q8ND71) | DSSO | K562 to K655 |
| SF3A1 (Homo sapiens, UniProt Q15459) | PRPF31 (Homo sapiens, UniProt Q8WWY3) | DSSO | K449 to K341 |
| ADH5 (Homo sapiens, UniProt P11766) | ANK3 (Homo sapiens, UniProt Q12955) | DMTMM | K373 to D2575 |

Excerpt of the above (set 1):
| Substitution | oxyanion analog dissociation constant |
| --- | --- |
| H333V | 3.61 µM |
| T255V | 2.75 µM |
